Measured values pooled from the literature.
A part holds a random share of what one study measured.

Sample 1
Target: Ras GTPase-activating protein-binding protein 1, full length (G3BP1, Homo sapiens, UniProt Q13283)
Sequence of UniProt Q13283 (whole entry, looked up): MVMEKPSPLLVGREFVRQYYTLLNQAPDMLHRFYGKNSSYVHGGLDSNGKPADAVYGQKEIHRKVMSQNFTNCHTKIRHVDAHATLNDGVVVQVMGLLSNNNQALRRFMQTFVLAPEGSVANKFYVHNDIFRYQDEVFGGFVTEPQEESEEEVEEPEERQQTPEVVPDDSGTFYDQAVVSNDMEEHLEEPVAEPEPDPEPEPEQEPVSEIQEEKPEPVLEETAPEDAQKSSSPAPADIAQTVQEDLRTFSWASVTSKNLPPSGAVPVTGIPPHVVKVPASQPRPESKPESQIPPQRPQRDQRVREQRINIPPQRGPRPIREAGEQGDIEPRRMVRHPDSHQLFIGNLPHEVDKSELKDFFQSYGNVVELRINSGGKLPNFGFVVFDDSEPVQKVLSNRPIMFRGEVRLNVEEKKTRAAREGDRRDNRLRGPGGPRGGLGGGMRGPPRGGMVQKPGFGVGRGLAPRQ
Method: RNA Bind-n-Seq
Molecule type: RNA
Sample: in vitro
Tested at: 200 nM
Notes: whole 134-nt RNA, ends assumed
With: 150 mM KCl
Relative to: input library
Direction: higher = stronger binding
All sequences stand within: GGGAGUUCUACAGUCCGACGAUC … UGGAAUUCUCGGGUGUCAAGG
| Oligonucleotide | log2 enrichment |
| --- | --- |
| UGUGCUACACAUCGUAUGUACCGAAUCGGGGAAAAAAAGGGGUUUUUUUGGGGUUUUUGGGGAAAGUAUUAUGUUACGCCGUUCGGAUCU | -0.174 |
| GUCCUGUGCUACACAUCGUAUGUACCGAAUCAAAUUUAAACCCCCCCAAAUUUUUAAAAAAGUAUUAUGUUACGCCGUUCGGAUCUGCAC | 0.228 |
| CUGUGCUACACAUCGUAUGUACCGAAUCGGUUUUUUUGGGUUUUUUUGGGUUUUUUUGGGGAAAGUAUUAUGUUACGCCGUUCGGAUCUG | -1.05 |
| ACCAUGCAGGUGGGCAUCUUUGGGAAGUGGGGCAAGGGGGGGAUAGGGAGGGGGGUAACACUUUGGGAACAGGUGGUCCCUGGUCGUUUC | 1.25 |
| CUCAAGUCCUGUGCUACACAUCGUAUGUACCGAAUCGGGAGGGUGGGAAAGGGAAAGUAUUAUGUUACGCCGUUCGGAUCUGCACUUCCA | 1.35 |
| CCUCAAGUCCUGUGCUACACAUCGUAUGUACCGAAUCGGGAGGGAGGGGAGGGAAAGUAUUAUGUUACGCCGUUCGGAUCUGCACUUCCA | 1.6 |
| CAAGUCCUGUGCUACACAUCGUAUGUACCGAAUCGGGGCCCCGGCCCCGGCCCCGGAAAGUAUUAUGUUACGCCGUUCGGAUCUGCACUU | -0.835 |
| GCAGGAAGUAAAAACAAAUGGAAAUGCUUCGGAUAGUGGCAGGGGUGGGGGUUGCUAAGGAAAGGGUGGGAUGGGCGUGGGUAAAGAGUU | 1.03 |
| AAGUCCUGUGCUACACAUCGUAUGUACCGAAUCAAAUUUUUAAAUUUAAAUUUAAAAAAGUAUUAUGUUACGCCGUUCGGAUCUGCACUU | -1.72 |

Sample 2
Target: Myc proto-oncogene protein, bHLH-zipper, MAX partner unstated (MYC, Homo sapiens, UniProt P01106, residues 368-449)
Sequence of UniProt P01106 (368-449, looked up): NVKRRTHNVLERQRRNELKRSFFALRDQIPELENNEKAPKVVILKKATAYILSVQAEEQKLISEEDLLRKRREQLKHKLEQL
Method: protein-binding microarray
Molecule type: double-stranded DNA, one strand shown
Sample: in vitro
Tested at: not given
Notes: k-mer, scored over probes, only values ≥0.25
Direction: higher = stronger binding
| Oligonucleotide | E-score |
| --- | --- |
| GTGTAGCA | 0.313 |
| GGTCCACA | 0.292 |
| GCATGTCC | 0.376 |
| ACGTGGTA | 0.444 |
| ATGCGCTA | 0.265 |
| ACCGCCAC | 0.277 |
| ATGCCGCG | 0.271 |
| AAACGAGG | 0.275 |
| CCCGTGGC | 0.295 |
| CGTGGGAA | 0.391 |
| AACGCGTG | 0.445 |
| CCCGACCC | 0.268 |
| CATGCCAC | 0.378 |
| CCTCCCCA | 0.403 |
| AGGAGGGG | 0.331 |
| CGAGGACC | 0.285 |
| CACGATGA | 0.316 |
| GACATGCA | 0.288 |
| ACTCACGC | 0.289 |

Sample 3
Target: RNA binding protein fox-1 homolog 2, RRM domain, GST-SBP tag (RBFOX2, Homo sapiens, UniProt O43251-10, residues 100-194)
Method: RNA Bind-n-Seq
Molecule type: RNA
Sample: in vitro
Tested at: 365 nM
Notes: natural RNA segment, single round, ends assumed
Relative to: no-protein control
Direction: higher = stronger binding
All sequences stand within: GGGAGUUCUACAGUCCGACGAUC … UGGAAUUCUCGGGUGCCAA
Target sequence (chain): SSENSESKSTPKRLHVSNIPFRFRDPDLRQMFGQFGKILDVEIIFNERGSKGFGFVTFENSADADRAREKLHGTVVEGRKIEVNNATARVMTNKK
| Oligonucleotide | RBNS enrichment (R) |
| --- | --- |
| UAUAAACACGAUGUUAUUUUUCUUUACAAAAGCAAAAAAAUAAAAACCGUACCAACCUUUGACUUGUUCAGGCUGUGUUUUCUUUGUUUGCUGGGCUAGCCCUCUGGGGG | 0.512 |
| CUGGGCCUCCGCUCUUUAACUAUAUAAACAUUUAUCUGUAUAUCUAUGUCCCUGUCUGGGGGGCAGGAGGAAUCUGCCAAAGACCAACAGUCUUACUUUAUCUUACUAUA | 0.463 |
| AAAAAUCAGCGAGCCUUCGCAUUUGAUGCCAAGUUUUUGUUACAGAUUAAUUUUUCCAUAAAACCAUUUUGAACCAAUGAACCAGUCAAUAAUUUUAAGGUUCUGUUUUA | 1.06 |
| UCUGUAUUAUCAGAUCACAAAGGUGGAAUGUUACUAUUUUAUCAGCAAGAUAUUAAAAUGUAUUUCUAAAUCCUCCUUGGUUUCAAUCAUGAAUAAACUUAUUAGCAAUU | 0.426 |
| AGAUAGAGCUGGGUGGCCUGUUUCUGCAGCCCUUGGGCAGUUCUCACUCCUAGGAGAGCCAACCUCGGCUUGUGGGCUGGUGCCCCACAGCUACCUGAGACGGGCAUCGC | 0.302 |
| AACAGAACUGUGGUAUUGUUUCGAGAAGAAUUAAGUAAAGUUUAAUCUUUCUGAACUCCUGACUUACUCCAGUACACAAUGCCAAUCGCUGCACCAUUUGAUGUGCAUGU | 0.654 |
| UUCAGAUUUAAAAUGAAUAGCUGGACUCUGCUGGCUCAGUCUCCUCUCCUUUUUAACACACUUUCUUAGGUCUAUGGAAACUACAGGGUUGCCACUGAAAUGUUUUUUUA | 0.616 |
| AGUGACAGAGAUGCCUCAGCUCUAGGCUCCUGCCCUUGCUGCUCCCACCUUCCAAGCCAGUUGCAGAGCCCCUGCUAAGGACCGAGCCUGCUCACUCAUCUCAGCUCCAG | 0.665 |

Sample 4
Target: Histone acetyltransferase KAT6A, winged helix 2, GST fusion (KAT6A, Homo sapiens, UniProt Q92794, residues 85-181)
Method: protein binding microarray
Molecule type: double-stranded DNA, one strand shown
Sample: in vitro
Tested at: not given
Notes: 8-mer, flanks averaged, mean of 2 arrays, mostly near background
Relative to: not given
Direction: higher = stronger binding
Construct (chain): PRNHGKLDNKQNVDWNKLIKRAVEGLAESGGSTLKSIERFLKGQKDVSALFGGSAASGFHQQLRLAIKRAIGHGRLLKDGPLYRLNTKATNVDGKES
| Oligonucleotide | E-score |
| --- | --- |
| AGGGTCCA | -0.0237 |
| CGCACTGC | 0.185 |
| AGCGATTA | -0.0992 |
| CGCACACG | 0.0483 |
| CGATTAAC | -0.0602 |
| AATCGCAA | 0.127 |
| ACACGCTA | -0.118 |
| AATGGGGT | -0.251 |
| TGAGACAA | -0.138 |
| AAAAGGAG | 0.00594 |
| TAAGGCAA | -0.0361 |
| GAATTATC | -0.0395 |
| GAGGTCTA | -0.0568 |
| ACTTTATG | -0.103 |
| GCGTCAAA | 0.102 |
| ATAACCAT | -0.183 |
| GGATCTAC | -0.078 |
| ACACGATG | -0.125 |
| AGATATGC | 0.0305 |
| ACACGGGC | 0.0547 |
| GCTTGCCC | 0.0515 |
| CCGATGGC | 0.0292 |
| AGTAGATG | -0.12 |
| GTCAAGAC | -0.162 |
| CAGTGTGC | 0.05 |

Sample 5
Target: Prothrombin, mature alpha-thrombin (F2, Homo sapiens, UniProt P00734)
Method: aptamer microarray, sandwich
Molecule type: DNA with 2'F-ANA
Sample: in vitro
Tested at: 200 nM
Notes: whole 15-mer aptamer, many near background
With: Cy3 exosite-II aptamer, 400 nM
Direction: higher = stronger binding
Oligonucleotide: GGTTGGTGTGGTTGG
| Modification | mean fluorescence intensity [a.u.] |
| --- | --- |
| 2'F-ANA at 2 5 15 | 69 |
| 2'F-ANA at 3 5 8 9 10 11 | 60.5 |
| 2'F-ANA at 1 2 8 10 14 15 | 44.9 |
| 2'F-ANA at 1 3 5 6 9 12 14 | 57.6 |
| 2'F-ANA at 3 4 5 6 8 9 10 11 13 15 | 50.9 |
| 2'F-ANA at 1 7 8 9 11 12 13 14 | 109 |
| 2'F-ANA at 2 3 6 10 11 12 | 432 |
| 2'F-ANA at 5 8 9 10 12 | 48.1 |
| 2'F-ANA at 1 4 5 6 8 11 15 | 55.4 |
| 2'F-ANA at 1 2 3 8 9 12 15 | 546 |
| 2'F-ANA at 1 4 6 7 9 10 | 50 |
| 2'F-ANA at 2 4 5 6 | 69 |
| 2'F-ANA at 1 5 6 7 8 12 13 14 | 71.1 |
| 2'F-ANA at 2 3 5 8 13 15 | 91.5 |
| 2'F-ANA at 1 5 7 9 11 13 14 | 45.4 |
| 2'F-ANA at 2 4 5 6 8 9 10 | 46.3 |
| 2'F-ANA at 7 10 11 12 13 14 | 110 |
| 2'F-ANA at 3 5 6 12 13 14 15 | 83.8 |
| 2'F-ANA at 2 3 4 6 7 8 9 10 11 12 13 14 | 163 |
| 2'F-ANA at 2 4 9 10 11 15 | 80 |
| 2'F-ANA at 8 9 11 12 13 | 715 |
| 2'F-ANA at 1 2 3 4 6 10 11 12 13 15 | 86.3 |
| 2'F-ANA at 1 2 4 5 6 7 8 9 11 12 13 14 15 | 52.8 |
| 2'F-ANA at 1 3 5 7 8 | 72.1 |
| 2'F-ANA at 2 3 4 7 8 10 12 13 | 331 |

A few entries again (sample 4):
| Oligonucleotide | E-score |
| --- | --- |
| GAGGTCTA | -0.0568 |
| ACACGGGC | 0.0547 |
| CAGTGTGC | 0.05 |
| CGCACACG | 0.0483 |
| ACACGATG | -0.125 |
| CGATTAAC | -0.0602 |
| GAATTATC | -0.0395 |
| AAAAGGAG | 0.00594 |
| ACACGCTA | -0.118 |
| TGAGACAA | -0.138 |
| ATAACCAT | -0.183 |
